Measurements of several laboratories.
Parts stem from different laboratories: compare values within a part only. Positions count from the first letter of the parent shown.

Series 1 — technique: universal PBM; molecule type: double-stranded DNA, one strand shown; sample: in vitro; tested at: 600 nM; reading: higher = stronger binding
Target: Sal-like protein 4, full length isoform A (SALL4, Homo sapiens, UniProt Q9UJQ4, residues 1-1053)
UniProt Q9UJQ4, sequence (whole entry, looked up): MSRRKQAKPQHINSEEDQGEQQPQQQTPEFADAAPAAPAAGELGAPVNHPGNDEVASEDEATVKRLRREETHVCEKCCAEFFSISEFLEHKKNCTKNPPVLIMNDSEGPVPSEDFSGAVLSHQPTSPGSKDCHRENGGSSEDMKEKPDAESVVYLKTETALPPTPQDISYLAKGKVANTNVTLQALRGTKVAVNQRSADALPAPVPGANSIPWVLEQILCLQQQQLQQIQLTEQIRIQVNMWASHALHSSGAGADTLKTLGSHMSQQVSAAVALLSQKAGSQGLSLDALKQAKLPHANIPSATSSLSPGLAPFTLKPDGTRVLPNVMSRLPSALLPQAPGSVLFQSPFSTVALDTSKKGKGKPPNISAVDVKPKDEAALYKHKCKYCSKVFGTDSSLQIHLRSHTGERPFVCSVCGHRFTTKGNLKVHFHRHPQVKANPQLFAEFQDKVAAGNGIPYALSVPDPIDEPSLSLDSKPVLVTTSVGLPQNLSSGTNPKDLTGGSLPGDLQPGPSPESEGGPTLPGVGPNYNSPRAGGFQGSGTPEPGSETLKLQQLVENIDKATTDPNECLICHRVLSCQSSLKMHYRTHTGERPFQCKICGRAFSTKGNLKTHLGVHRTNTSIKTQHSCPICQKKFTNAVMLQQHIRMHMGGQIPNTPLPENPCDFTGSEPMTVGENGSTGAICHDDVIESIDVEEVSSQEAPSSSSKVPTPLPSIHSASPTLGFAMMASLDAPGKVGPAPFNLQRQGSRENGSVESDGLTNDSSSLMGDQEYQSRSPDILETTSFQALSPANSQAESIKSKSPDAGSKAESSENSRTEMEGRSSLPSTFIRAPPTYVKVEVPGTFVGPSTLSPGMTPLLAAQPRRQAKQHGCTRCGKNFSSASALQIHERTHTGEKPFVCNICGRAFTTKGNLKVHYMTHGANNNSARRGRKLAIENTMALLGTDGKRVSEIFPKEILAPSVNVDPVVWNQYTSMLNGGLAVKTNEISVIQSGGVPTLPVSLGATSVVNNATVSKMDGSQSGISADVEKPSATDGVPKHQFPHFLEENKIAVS
Setting: 8-mer, flanks averaged, mean of replicates
`ATAACGAA` has an E-score of 0.32.
`AATCTGAA` has an E-score of 0.209.
`ACTCCCGA` has an E-score of -0.117.
With `GGCGGCTA` the E-score was -0.197.
With `AGCGTGTC` the E-score was -0.155.
For `CTTAATTA`, the E-score was 0.317.
With `CTCTAAGA` the E-score was 0.033.
With `GTACACAA` the E-score was 0.102.
`TCTCGGAA` gave an E-score of -0.12.

Series 2 — technique: RNA Bind-n-Seq; molecule type: RNA; sample: in vitro; tested at: 1 µM; setting: whole 134-nt RNA, ends assumed; together with: 150 mM KCl; relative to: input library; reading: higher = stronger binding
Target: Ras GTPase-activating protein-binding protein 1, RRM domain (G3BP1, Homo sapiens, UniProt Q13283)
UniProt Q13283, sequence (whole entry, looked up): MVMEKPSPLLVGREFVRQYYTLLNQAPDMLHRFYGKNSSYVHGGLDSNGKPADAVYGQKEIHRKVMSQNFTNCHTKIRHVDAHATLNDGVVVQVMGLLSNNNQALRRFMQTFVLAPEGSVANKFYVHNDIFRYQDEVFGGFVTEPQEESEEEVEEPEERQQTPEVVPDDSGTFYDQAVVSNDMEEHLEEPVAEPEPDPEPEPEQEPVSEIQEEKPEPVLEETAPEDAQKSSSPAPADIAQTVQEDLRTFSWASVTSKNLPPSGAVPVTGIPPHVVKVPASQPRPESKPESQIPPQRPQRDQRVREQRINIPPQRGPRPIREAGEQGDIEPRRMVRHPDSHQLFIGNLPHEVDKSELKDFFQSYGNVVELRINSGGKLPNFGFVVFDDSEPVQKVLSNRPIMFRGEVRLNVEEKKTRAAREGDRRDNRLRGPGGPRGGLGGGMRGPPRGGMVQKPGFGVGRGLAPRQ
With `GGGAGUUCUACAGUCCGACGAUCGUCCUGUGCUACACAUCGUAUGUACCGAAUCGGGGAGGGGUUUGGGGAAAAAAAGGGGAAAGUAUUAUGUUACGCCGUUCGGAUCUGCACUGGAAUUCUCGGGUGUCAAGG` the log2 enrichment was 0.98.
With `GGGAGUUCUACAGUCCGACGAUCUUCUCUUCACUCCCACCAGUGCGGGUGGUCUUUGCAGUGACUAUGGAAGGCAGUGCACGGAAAGUCAUCACUGUCCGGUCAGCCCUCAUUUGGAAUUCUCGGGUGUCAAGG` the log2 enrichment was -0.0618.
`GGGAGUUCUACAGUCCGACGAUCGUCCUGUGCUACACAUCGUAUGUACCGAAUCGGCCCCCGGCCCCCGGGGCCCCCGGGGAAAGUAUUAUGUUACGCCGUUCGGAUCUGCACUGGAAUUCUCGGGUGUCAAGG` gave a log2 enrichment of -0.511.
For `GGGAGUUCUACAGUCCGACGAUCCUCAAGUCCUGUGCUACACAUCGUAUGUACCGAAUCGGAAGGGAAGGGAAGGGGAAAGUAUUAUGUUACGCCGUUCGGAUCUGCACUUCCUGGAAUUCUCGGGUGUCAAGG`, the log2 enrichment was -0.0253.
For `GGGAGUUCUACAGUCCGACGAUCGCAGGAAGUAAAAACAAAUGGAAAUGCUUCGGAUAGUGGCAGGGGUGGGGGUUGCUACGGAAAGGGUGGGAUGGGAGUGGGUAAAGAGUUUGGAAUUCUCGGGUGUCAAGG`, the log2 enrichment was 1.64.
With `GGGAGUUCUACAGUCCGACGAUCUCCUGUGCUACACAUCGUAUGUACCGAAUCGGGGCCCCCCGGGCCCCCCGGCCCCCCGGAAAGUAUUAUGUUACGCCGUUCGGAUCUGCAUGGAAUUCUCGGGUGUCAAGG` the log2 enrichment was -0.308.
`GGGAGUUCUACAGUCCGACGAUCUAACUUUAGAGGAGGAUCUGAUGGAUAUGGCAGUGGACGUGGAUUUGGGGAUGGGUAUAAUGGGUAUGGAGGAGGACCUGGAGGUGGCAAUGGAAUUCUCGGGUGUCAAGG` gave a log2 enrichment of -0.382.
With `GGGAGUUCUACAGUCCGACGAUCCAAGUCCUGUGCUACACAUCGUAUGUACCGAAUCGGGGAGGGGAGGGGUUUGGGGAAAGUAUUAUGUUACGCCGUUCGGAUCUGCACUUCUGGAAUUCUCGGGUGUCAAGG` the log2 enrichment was 1.02.

Series 3 — target: CCNE2, cyclin fold, Cln2 fusion (human); technique: yeast growth competition, sequencing; sample: yeast; setting: strong parent motif; relative to: not given; reading: higher = stronger binding
Starting sequence: E2F1 docking peptide (human); PPVKRRLDLETDH; partner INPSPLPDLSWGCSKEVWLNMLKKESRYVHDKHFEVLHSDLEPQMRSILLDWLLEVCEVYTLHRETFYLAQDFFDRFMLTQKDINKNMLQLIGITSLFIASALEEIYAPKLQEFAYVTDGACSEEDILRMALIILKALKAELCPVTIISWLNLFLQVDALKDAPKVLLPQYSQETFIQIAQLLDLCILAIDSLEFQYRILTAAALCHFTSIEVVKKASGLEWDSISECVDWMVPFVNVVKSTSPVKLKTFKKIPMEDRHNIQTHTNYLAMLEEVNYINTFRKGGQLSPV
For `R6P`, “normalised enrichment score” read -0.536.
For `H13F`, “normalised enrichment score” read 0.565.
`D8F` — result for “normalised enrichment score”: 6.85.
Under “normalised enrichment score”, `P2C` is recorded as 1.31.
`T11L`: “normalised enrichment score” 2.21.
Under “normalised enrichment score”, `R5P` is recorded as -0.721.
For `P1G`, “normalised enrichment score” read 1.42.

Other studies, line by line
`PhoQ, residues 284 288 289 292 302 303 SCEHLI` has a fold induction of 0.678 (PhoP, residues 12 14 15 18 19 NIMAP (Escherichia coli, UniProt P23836); Sort-seq, measured: YFP reporter; E. coli; PhoQ-PhoP variant library, together with: 10 µM Mg2+; relative to: high Mg2+ state, higher = stronger signaling).

Excerpt of the above (series 1):
With `GTACACAA` the E-score was 0.102.
For `CTTAATTA`, the E-score was 0.317.
